Results gathered from unrelated publications.
A part holds a random share of what one study measured.

Sample 1
Target: Fragile X messenger ribonucleoprotein 1, C-terminal low-complexity region (Fmr1, Mus musculus, UniProt P35922)
Technique: RNA Bind-n-Seq
Form: RNA
Sample: in vitro
Concentration: 200 nM
Notes: whole 134-nt RNA, ends assumed
Added: 150 mM KCl
Relative to: input library
Direction: higher = stronger binding
Constant ends, left off below: GGGAGUUCUACAGUCCGACGAUC … UGGAAUUCUCGGGUGUCAAGG
| Sequence | log2 enrichment |
| --- | --- |
| UCAAGUCCUGUGCUACACAUCGUAUGUACCGAAUCGGGGCGGGGCGGGGCGGGGAAAGUAUUAUGUUACGCCGUUCGGAUCUGCACUUCC | 1.42 |
| UGCAGACGGGGAACCUGCUGAACUGGGGCCGCCUGCGGAAGAAGUGCCCGUCCACGCACAGCGAGGAGGUGAGCGUGGCGACACUCGCCG | -2.09 |
| CCUGUGCUACACAUCGUAUGUACCGAAUCGGGGUUUUUGGGGUUUUUUUGGGGAAAGGGGAAAGUAUUAUGUUACGCCGUUCGGAUCUGC | 0.561 |
| UCACUUUAGAGGAGGAUCUGAUGGAUAUGGCAGUGGACGUGGAUUUGGGGAUGGCUAUAAUGGGUAUGGAGGAGGACCUGGAGGUGGCAA | 0.317 |
| UGGCCCUGGUGGCAUGCGGGAAGGAAGAGGUGGCCUCAUGGAUCGUGGUGGUCCCGGUGGAAUGUUCAGAGGUGGCCGUGGUGGAGACAG | 0.443 |
| UCAUCCUUUUUAAAUUUUUUUUUUUUUUUUGAGACGGUCUCACUCUCACCCAGGCUGGAUUGCAGUGGUGUGAUCUCGACCAACUGCAAC | -0.0218 |
| CAAGUCCUGUGCUACACAUCGUAUGUACCGAAUCGGGGUUUGGGGUGGGGUGGGGAAAGUAUUAUGUUACGCCGUUCGGAUCUGCACUUC | 1.28 |
| UAACUUUAGAGGAGGAUCUGAUGGAUAUGGCAGUGGACGUGGAUUUGGGGAUGGCUAUAAUGGGUAUGGAGGAGCACCUGGAGGUGGCAA | 0.0842 |
| CUCAAGUCCUGUGCUACACAUCGUAUGUACCGAAUCGGGAAGGGAAGGGAAGGGAAAGUAUUAUGUUACGCCGUUCGGAUCUGCACUUCC | 0.957 |
| UGGCCCUGGUGGCAUGCGGGGAGGAAGAGGUGGCCUCAUGGAUCGUGGUGGUCCCGGUGUAAUGUUCAGAGGUGGCCGUGGUGGAGACAG | -0.0493 |
| UGGCCCUGGUGGCAUGCGGGGAGGAAGAGGUGGCCUCAUGGAUCGUGGUGGUCCCGGUGGAAUGUACAGAGGUGGCCGUGGUGGAGACAG | 0.0636 |
| GUCCUGUGCUACACAUCGUAUGUACCGAAUCGGGUUUUUUUGGGUUUUUUUGGGAGGGAAAGUAUUAUGUUACGCCGUUCGGAUCUGCAC | 0.297 |
| CACAGACAACACGCACCCACACAGACACAGAGGGAAGGGGUUGGGAUGGGGACAGGGUGCACAGCAGGGCGGUGUAGGACCCCAGCCCCU | 1.04 |
| AGUCCUGUGCUACACAUCGUAUGUACCGAAUCGGGAAAGGGUUUGGGAAAAAAAGGGAAAGUAUUAUGUUACGCCGUUCGGAUCUGCACU | -0.285 |

Sample 2
Target: Interferon regulatory factor 5, full length, phosphomimetic (IRF5, Homo sapiens, UniProt Q13568-2, residues 1-514, K96S/S451D/S453D/S456D/S462D)
Technique: protein-binding microarray
Form: double-stranded DNA, one strand shown
Sample: in vitro
Concentration: 250 nM
Notes: 60-bp whole probe
Added: salmon DNA 0.4 mg/ml
Relative to: random background probes
Direction: higher = stronger binding
Constant ends, left off below: GCCTAGCAC … GTCTTGATTCGCTTGACGCTGCTG
| Sequence | log fluorescence |
| --- | --- |
| GACGATTTCAGTTCCGACACGTGCTAG | 1.37 z-score |
| CCTTGCATGTTTTTGACAAAGTGCTAG | 0.104 z-score |
| AAGTTTACCCATCTCCAGTAGTGCTAG | 0.144 z-score |
| GACGGTTTCTTTTCCCTGACGTGCTAG | 1.51 z-score |
| GACGGACTGGGACTGGGGAGGTGCTAG | -0.641 z-score |
| ACACTACCTGACTTCAAACTGTGCTAG | 0.357 z-score |
| TTAGGTCTCGACTATCGGTTAGTGCTA | 5.86 z-score |
| GATGATATCGGGTATCGAGACGTGCTA | 3.14 z-score |
| TCTCCTTTCGGAATACCCTCGTGCTAG | 7.3 z-score |
| GACGGTTCCGACACTGGGGACGTGCTA | -0.203 z-score |
| TTAGGTTTCGATACTGGGTTAGTGCTA | 9.41 z-score |
| TTAGGTATCGGGCATCGGTTAGTGCTA | 2.39 z-score |
| CCCTGCGTGGTCTCGAGCTGGTGCTAG | -0.807 z-score |
| GACGATTTCGGGACTGGAGCCGTGCTA | 1.51 z-score |
| TTAGGACTGGGATTGGGTTAGTGCTAG | -0.393 z-score |
| GACGGACTGGAACTGGGGACGTGCTAG | -0.597 z-score |
| GACGGGCTGCTTCTCCTGACGTGCTAG | -0.739 z-score |
| CACGGACTGCTTTTCCTGACGTGCTAG | -0.33 z-score |
| TTAGGCATCGACACTGGGTTAGTGCTA | -0.0338 z-score |
| TTAGGTCTCGGTCTCGGTAAGTGCTAG | 0.821 z-score |
| TTAGGTTTCAACTATCGGTTAGTGCTA | 7.29 z-score |
| CTTTGTTTTTTTCTATATGCGTGCTAG | 1.73 z-score |

Sample 3
Target: RNA binding protein fox-1 homolog 2, RRM domain, GST-SBP tag (RBFOX2, Homo sapiens, UniProt O43251-10, residues 100-194)
Technique: RNA Bind-n-Seq
Form: RNA
Sample: in vitro
Concentration: 365 nM
Notes: natural RNA segment, single round, ends assumed
Relative to: no-protein control
Direction: higher = stronger binding
Constant ends, left off below: GGGAGUUCUACAGUCCGACGAUC … UGGAAUUCUCGGGUGCCAA
Target sequence (chain): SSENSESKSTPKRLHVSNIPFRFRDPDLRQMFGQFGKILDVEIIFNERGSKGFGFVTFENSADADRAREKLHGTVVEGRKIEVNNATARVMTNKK
| Sequence | RBNS enrichment (R) |
| --- | --- |
| GGCAUUUGCAAAGUCUAUUCAGUUUCCUUCCACACUCUGACCCACGGUUGUAGCGGAGUGGGCUGAACACUGUAACACUGUACAUGCGAUUUCCCCAUGGGCUUCUAAAA | 0.484 |
| AAAAUGUUAACUUUGCCUAAAAAUAUUGCAGUGACUUUUUAGGCAGGAGUGCCAAAGGACACUAUGAACUUUUUGAACUGACAGUUUCUCCUAACUUUCUGCUUUAGCGU | 0.639 |
| AAAUGGUGUGGCCCAGGGCCACAUAACAGACUGCUGUCCUGGGCUGCCUCAGGUCCCGAGUAACUUAUGUUCAAUGUGCCAACACCAGUGGGGAGCCCGCAGGCCUAUGU | 0.426 |
| UUUCUGUGACAAGUAUUUGUCGUAAAUUAAUUUUAAUUGUGUAUCAAGUGAAAAAGAAACACUGAGGUUUUAAGCUGCUGUAUAUAGCUUGUGAGAAACCUCUUUUCUUU | 0.401 |
| UGCAUAAAUCGAUUAGUCUGCUGUUGCUUAAGGCAGCAGCCCCAGGCAGCAUUUAAGCGGGAUCCUUAGCAAGACAGAAUCCAGCAAAACCCUUUCCCCUCUCAAGCCAG | 0.514 |
| AUGCUGGACAAAGAUGAAAGCGACCUUCAAGUCUCCCCCCAAGAUGGAACACUCAGUGCCGUAGCCCAGGAAGGACUUGCGGUUUCUGAUAGUUCUGAAGGCAUGAGCAA | 0.556 |
| AGCCUUACCAACAUGGAGAAACCCCAUCUCUACUAAAAAUACAAAAUUACCUGGGCGUGGUGGUGCAUGCCUGUAAUCCCAUCAUCUACUCAGGAGGCUGAGGCAGGAGA | 1.87 |
| UGUUCUGGUUACCUGGUUAUAAUAGAGUAUUAAAGCAGUUAUCUUCUGUAUUAUCAGAUCACAAAGGUGGAAUGUUACUAUUUUAUCAGCAAGAUAUUAAAAUGUAUUUC | 0.385 |
| CGCCUUUUUAAGACUUGAGUGGUGGCACUAGCCAGUGUCCCCCAUGGCUGGGCAGUUGAGCACCUGCUCUUCACCUGCCCUGGCUAUGGCUGUGGCAAGCUGUGAGCCCU | 0.264 |
| GGCAGGCCCAGGCCAGCCAGUGCCCGAGGCCAGGAAGGCCGGGCCGUGGAGGUCCUGUCCACAGCUGGACAGGAGAGACACCGCCUGCGGUGGUUCAUUCCUUUCAGCCA | 0.223 |
| GAAAGGCGUCACUCUGCCAGAGUGUGACUUUUUACAGAUUAAAUAAAGCUGUAUAUGUCUCAUUGUUCCCGGCUGCUGGUGUUAUUUCUCCAAAGCGACUCUCCAAGGCU | 0.226 |
| GGCAGGAUCCCUGCCUACGCCCGGGCCCGAUUUGCGCUUUGCCGGACUGGAUGGAGUGGAGGAGGCCCAGGCCACAGUACCACCCCACCUGCCCAGGCAGCCCCUCGUCA | 0.143 |

Sample 4
Target: Histone acetyltransferase KAT6A, winged helix 1, GST fusion (KAT6A, Homo sapiens, UniProt Q92794, residues 1-85)
Technique: protein binding microarray
Form: double-stranded DNA, one strand shown
Sample: in vitro
Concentration: not given
Notes: 8-mer, flanks averaged, mean of 2 arrays, mostly near background
Relative to: not given
Direction: higher = stronger binding
Residues (chain): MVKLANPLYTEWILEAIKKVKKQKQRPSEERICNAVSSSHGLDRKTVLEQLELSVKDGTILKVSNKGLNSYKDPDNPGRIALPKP
| Sequence | E-score |
| --- | --- |
| CCGGCCAA | 0.132 |
| ACCTGAAT | -0.197 |
| GCCGTTGA | 0.255 |
| CTTGAGCA | -0.206 |
| GAGTATCA | -0.0117 |
| TGCTTGAA | -0.106 |
| AGCACTCC | -0.14 |
| CCTAATTC | -0.0977 |
| ACATGAAT | -0.232 |
| GAGTGAAC | -0.0548 |
| ACAGAGGT | -0.139 |
| CCATTATC | -0.169 |
| AAAGGCTC | -0.115 |
| AAAGGGCA | -0.2 |
| GATACCGC | 0.339 |
| CTGTATCA | -0.055 |
| CAGGACAG | -0.218 |
| ACGAGACA | -0.164 |
| AGCGAGCC | 0.168 |
| CCTTGCGA | -0.0967 |
| GCTCACCA | -0.033 |
| CGCCTATC | 0.145 |
| CTTCGGGA | -0.0508 |
| AGTCAGAT | -0.199 |
| ACGCAGAG | -0.115 |
